Measured values gathered from unrelated publications.
Each numbered part is a random draw from the data of one study; scales do not carry over between parts.

Series 1
Target: Interferon regulatory factor 5, full length, phosphomimetic (IRF5, Homo sapiens, UniProt Q13568-2, residues 1-514, S451D/S453D/S456D/S462D)
Technique: protein-binding microarray
Molecule type: double-stranded DNA, one strand shown
Sample: in vitro
Tested at: 940 nM top
Notes: 60-bp whole probe
With: salmon DNA 0.4 mg/ml
Reference: random background probes
Direction: higher = stronger binding
Constant ends, left off below: GCCTAGCAC … GTCTTGATTCGCTTGACGCTGCTG
Sequence | fitted relative affinity
TTAGATCTCAGTCTTGATTAGTGCTAG | 0.256 z-score
TCAGTTTTCTCCATGGAACTGTGCTAG | 0.65 z-score
TCAGCTGTTTTTCTCACACTGTGCTAG | 0.756 z-score
TTTGGTTTCCTTCTCCTTTAGTGCTAG | 3.87 z-score
GCCGGTATCGGTTTCGGGACGTGCTAG | 11.6 z-score
TTAGGGCTGCTACTGCTTTAGTGCTAG | -0.67 z-score
GACGGTCCCCTTCTCCTGACGTGCTAG | 0.139 z-score
TCAAGAAAGTGAAATACCACTGTGCTA | -0.494 z-score
AAGTGTTTCTCAACCAGTTTGTGCTAG | 0.583 z-score
GACGATTTCAGTATCGAGAAGTGCTAG | 2.38 z-score
TTACAACTGGGGACTGGATTAGTGCTA | 0.0415 z-score
TCAGTTCTGATCCTTCCCACTGTGCTA | 0.657 z-score
GGATCTTGCAGATGTCGCTGGGTGCTA | -0.549 z-score
TTAGGACAGGGTATCGGTTAGTGCTAG | 2.11 z-score
GACGAACTGGGGTATCTAGACGTGCTA | -0.00206 z-score
GACGGACTGGACACTGGGTACGTGCTA | -0.565 z-score
AGATTCCTCTCACCTCGGCCTGTGCTA | 1.32 z-score
TTACGACTGCTACTGCTTTAGTGCTAG | -0.0966 z-score
TTAGATGTCAGACTGGATTAGTGCTAG | -0.573 z-score
TTTGGTATCCTACTGCTTTAGTGCTAG | 0.45 z-score
TCAGATTTCGGGTATCGATTAGTGCTA | 3.38 z-score
CGCAGGGCAGGCTTCGGCCGGTGCTAG | -1.25 z-score

Series 2
Target: RING finger protein unkempt homolog, zinc fingers 1-6, SBP tag (UNK, Homo sapiens, UniProt Q9C0B0, residues 30-357)
UniProt Q9C0B0, sequence (30-357, looked up): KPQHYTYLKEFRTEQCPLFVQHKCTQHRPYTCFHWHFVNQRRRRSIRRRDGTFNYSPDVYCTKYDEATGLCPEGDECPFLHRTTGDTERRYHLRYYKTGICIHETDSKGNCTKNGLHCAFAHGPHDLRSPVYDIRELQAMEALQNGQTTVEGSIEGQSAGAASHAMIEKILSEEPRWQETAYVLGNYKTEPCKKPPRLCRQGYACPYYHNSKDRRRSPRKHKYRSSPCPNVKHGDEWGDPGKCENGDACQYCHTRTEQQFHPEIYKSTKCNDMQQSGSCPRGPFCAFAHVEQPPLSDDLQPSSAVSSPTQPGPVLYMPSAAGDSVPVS
Technique: RNA Bind-n-Seq
Molecule type: RNA
Sample: in vitro
Tested at: 100 nM
Notes: RNA with constant flanks, vertebrate orthologous sites, ends assumed
Reference: input RNA pool
Direction: higher = stronger binding
Constant ends, left off below: GGGAGUUCUACAGUCCGACGAUC … CAACAGAGGAUUGAGCAUCA
Sequence | bound/input enrichment
CAGGGUGGGACCUGGGCCCCACCACUCAGUGGCCCACUGGCCAUCUCAGCCAAGCCACUUUAGGUCCAUUUUUUAUUUUAACAAUGCUCUUCCAACCUGUGCAUAAGCCUGAGAUUUGGA | 1.87 ratio
AGCAACUCAAGGAUUCAGGACUGGUUUUACAAAUAUCCCAAGUAGAUAUGGAACUAGCACUCGAGGUCAACCCCAUCCAUAAUAAACUCUAAUUUGUAUUAUUUAUUAUACUUAAGGGUA | 0.623 ratio
CAGGGUGGGACCCGGGACCCGCGGCUCAGUGGCCCGCUAGCCACGUCAGCCAAGCCACUUUAGGUCCAUUUUUUAUUUUAACAGUGCUCUUCCAUCUUGUGCAUAAGCCUGAGAUUUGGA | 0.977 ratio
AAAUUUAUUUCAUGCCCUGGACUCCCUACCGCACCGAUACUUUAAUAGAAUAUGCCUCUAUUGAAGAUUUCCAAAACAGUCGCCAAACAACGACAUACAAACUUCCAAACCGAGUAGAUG | 0.738 ratio
UCCCCUCCCCUUAUGACAGGGAGUGGGGGGAGCUCAGGAUGACCCUCAACUGUUCCAAUCCAGUAUUUUUUUUUUCUUUUUAAAAGUUACUGUAUUUAUUAUGACGACGGUGACUCCCCG | 0.609 ratio
GGAUAUUUAAAAUCUUGAAUUGUCCUGGGAUGCUCAAGUUCAUUCUGUAGGAUGAGACCAUAGGAUGAUGUUGCUGUUUUGUUUUGUUCUGUCUUUUAAGUCUGUGUACUGUGUCCAGUU | 0.604 ratio
AUCCCUCAGUGACAGUAUGCCUUCUGUAGCAGAUUCCCACUCUAGUCAUUUUUCUGAAUUUAGUUGUUCUGACCUAGAAAGCAUGAAAACUUCCUGUAGUCAUGGUUCCAGUGAUUAUCA | 3.6 ratio
CAGCUGAUUCGCUCAUCGGGAGAGCUGCACAUAUAGCCGUUCUUGAUUCAGAAAUCUUCUUAGAGAAAUUCUUUCUGGUUGCUGCCCUUAAAUAUUUUCAAUAGGAUAAAAACGCUGUUA | 0.843 ratio
AAGAUGGUGGUUGUACAUUAUUUCAUUUAGAAAAUAUAAAACUUCAUUUUGUUUUGAAGCUAGGUGUUAAACUGGAAUAGCUAUUCUACCCCAGAGAAUGGGGCAGUUGUGCCCUUCCCU | 1.28 ratio
ACAGAAGAAGAGCUCACAACUCAAAAGGAACUAUUAAAAGAGUUUCUAAUGGCUGAAAGCUAGGAAAAAUUAGGACAAUUUUACAAAUGAGCCAUUAAAACAAAACAAAAAAAAAGGAUA | 1.29 ratio
CUCUCUGAGCGAUAGCAUCCCGUCUGUAGCAGAUUCCCACUCAAGUCAUUUUUCAGAGUUUAGUUGCUCUGAUAUGGAAAGUAUGAAAACGUCCUGUAGCCAUGGUUCCAAUGAUUACCA | 0.344 ratio

Series 3
Target: Centromere-binding protein 1, full length, His-tagged (CBF1, Saccharomyces cerevisiae, UniProt P17106, residues 1-351)
UniProt P17106, sequence (whole entry, looked up): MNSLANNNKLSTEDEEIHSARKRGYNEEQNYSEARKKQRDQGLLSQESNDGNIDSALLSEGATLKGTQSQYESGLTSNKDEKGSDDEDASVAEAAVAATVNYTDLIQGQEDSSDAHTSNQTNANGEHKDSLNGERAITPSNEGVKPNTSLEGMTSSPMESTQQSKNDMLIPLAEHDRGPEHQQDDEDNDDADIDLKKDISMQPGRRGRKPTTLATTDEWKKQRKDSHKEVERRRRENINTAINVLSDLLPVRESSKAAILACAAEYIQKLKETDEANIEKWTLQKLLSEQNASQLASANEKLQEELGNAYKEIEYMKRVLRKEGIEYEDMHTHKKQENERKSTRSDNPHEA
Technique: competition protein-binding microarray
Molecule type: double-stranded DNA, one strand shown
Sample: in vitro
Tested at: 2 µM
Notes: whole 60-bp probe, lowest competitor level
With: Pho4 competitor, 0.05 µM
Direction: higher = stronger binding
Constant ends, left off below: … GTCTTGATTCGCTTGACGCTGCTG
Sequence | fluorescence intensity [a.u.]
TAGAGGCCCAACCGTCACGGCGTCTGGCTACGAACC | 56.4
CATACCCAACCTTTTCACGTGCATTAAGATATTTGT | 1450
CCTTTGAAGTATTTTCTCGTGGAAGCAGCCTCGTAA | 80.7
GTCTTGTCTCATTGAGGAGTGGGTGTCCCCACTTCA | 69.2
GTTGCTTGCTAATTGCATGATCAAGTTGGGCCGACG | 72
TCCTTGCAGTACTATCACCTGCACCGGTTACCATCC | 98.3
CGTCCTAGTGATTGGCTAGTGGGTGCCATGAGGAAG | 74.2
TGTTCCATTCAATGAAACATGTCAATTCTCTGAGTG | 74.7
CTTTCCCGATCTTGTTCTGTGGGTGTAGCACATTTG | 71.6
TCTTGACATGTTCGGCACGCAAAATACCACCTAGGG | 73.8
AGCAACCGCACACAGAATGTGACGGCAAATGCATTT | 83.7
ATGGGCAAGCGCATCCATGTGGCGTTTCCTACTTTT | 69.3
AAAAGGTTGACTGGGCTCGTGAAGATTTCGAAAAGA | 82.6
TCACAGGAAAAGGCCCACATGCCAAAAAGGGTACCA | 79
CCGGACTTCCATCGGCACGTGGACCTAAAATTCTTT | 1940
CTTGCAAACCCTTCACACGTGGACCATGACGAATTT | 714
AAAGCGGTAATTTGTCACGGTACTTCACATATCTAT | 207

Series 4
Target: Sal-like protein 4, full length isoform A (SALL4, Homo sapiens, UniProt Q9UJQ4, residues 1-1053)
UniProt Q9UJQ4, sequence (whole entry, looked up): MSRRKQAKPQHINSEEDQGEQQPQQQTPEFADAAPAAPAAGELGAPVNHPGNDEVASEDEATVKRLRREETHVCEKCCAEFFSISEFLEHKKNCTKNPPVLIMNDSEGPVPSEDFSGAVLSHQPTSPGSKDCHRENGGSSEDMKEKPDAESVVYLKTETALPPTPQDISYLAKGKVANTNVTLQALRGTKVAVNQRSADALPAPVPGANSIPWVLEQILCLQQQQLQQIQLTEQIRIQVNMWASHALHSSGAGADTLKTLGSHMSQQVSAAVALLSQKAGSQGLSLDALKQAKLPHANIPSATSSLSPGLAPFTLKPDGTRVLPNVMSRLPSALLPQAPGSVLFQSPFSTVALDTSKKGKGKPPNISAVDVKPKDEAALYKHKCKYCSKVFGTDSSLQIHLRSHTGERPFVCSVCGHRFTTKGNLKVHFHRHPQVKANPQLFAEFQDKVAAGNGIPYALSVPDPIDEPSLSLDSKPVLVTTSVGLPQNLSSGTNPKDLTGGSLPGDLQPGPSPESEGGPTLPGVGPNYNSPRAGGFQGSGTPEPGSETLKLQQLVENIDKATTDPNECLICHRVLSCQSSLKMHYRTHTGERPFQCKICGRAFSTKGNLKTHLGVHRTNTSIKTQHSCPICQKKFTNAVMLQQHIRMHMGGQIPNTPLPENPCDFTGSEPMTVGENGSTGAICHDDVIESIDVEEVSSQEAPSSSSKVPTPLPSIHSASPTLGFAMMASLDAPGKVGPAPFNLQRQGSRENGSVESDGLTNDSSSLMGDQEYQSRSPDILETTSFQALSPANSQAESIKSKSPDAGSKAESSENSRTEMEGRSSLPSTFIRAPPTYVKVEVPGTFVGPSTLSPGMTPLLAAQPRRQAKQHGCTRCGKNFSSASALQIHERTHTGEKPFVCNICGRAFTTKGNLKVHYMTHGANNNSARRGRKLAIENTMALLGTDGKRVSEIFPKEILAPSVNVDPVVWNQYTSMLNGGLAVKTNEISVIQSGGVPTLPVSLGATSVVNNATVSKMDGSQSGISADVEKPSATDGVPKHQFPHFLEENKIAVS
Technique: universal PBM
Molecule type: double-stranded DNA, one strand shown
Sample: in vitro
Tested at: 600 nM
Notes: 8-mer, flanks averaged, mean of replicates
Direction: higher = stronger binding
Sequence | E-score
GGCCACAA | -0.259
AAGTCGCT | -0.0947
CCAGTGAA | -0.0229
AACGGGAG | -0.00571
ACCACTAT | 0.141
GTGATCGA | 0.0697
ACAGCGGA | -0.13
CATGACCA | -0.0585
AGCGATGG | -0.279
TGGTGAAA | 0.0336
CAGTGACA | 0.0233
CTCGTCCC | -0.184
ATTAATAA | 0.464
GTTCCAAC | -0.0299
CCGTTCCA | -0.0234
CATCGCAG | -0.148
GCCGACCA | -0.315

Series 5
Target: Histone acetyltransferase KAT6A, winged helix 2, GST fusion (KAT6A, Homo sapiens, UniProt Q92794, residues 85-181)
Technique: protein binding microarray
Molecule type: double-stranded DNA, one strand shown
Sample: in vitro
Tested at: not given
Notes: 8-mer, flanks averaged, mean of 2 arrays, mostly near background
Reference: not given
Direction: higher = stronger binding
Residues (chain): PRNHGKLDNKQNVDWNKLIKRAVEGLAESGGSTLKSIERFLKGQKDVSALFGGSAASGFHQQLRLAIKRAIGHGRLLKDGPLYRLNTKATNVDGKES
Sequence | E-score
GGTTCAGA | 0.0851
CATCATGC | -8e-05
CCGGTGCG | 0.114
ACCGCGCA | 0.00977
ACCCGCAT | 0.125
ACACGCGC | 0.172
AGCTGTCG | -0.186
GGGCTGGA | 0.091
CAGAGCGA | 0.175
TCGTCAGA | 0.00879
ACACAATC | 0.00519
AAAGCTAC | -0.0996
AATGAATT | 0.103
TCGATGAA | 0.0335
ATGCTCAA | -0.0781
GCCCGCAC | 0.205
AAGCCTAA | 0.0245
AGCTCGTA | -0.0214
CGTGACAG | -0.0787
ACCGTGCA | -0.0991
CTACATTC | -0.152
ATACGCTC | -0.0635
ATTATTAA | 0.126
CTTGGGTC | 0.0296
CCCTGAGG | 0.0218

Excerpt of the above (series 1):
Sequence | fitted relative affinity
TTAGGGCTGCTACTGCTTTAGTGCTAG | -0.67 z-score
GACGGTCCCCTTCTCCTGACGTGCTAG | 0.139 z-score
TCAAGAAAGTGAAATACCACTGTGCTA | -0.494 z-score
AAGTGTTTCTCAACCAGTTTGTGCTAG | 0.583 z-score
GACGATTTCAGTATCGAGAAGTGCTAG | 2.38 z-score
TTACAACTGGGGACTGGATTAGTGCTA | 0.0415 z-score
TCAGTTCTGATCCTTCCCACTGTGCTA | 0.657 z-score
GGATCTTGCAGATGTCGCTGGGTGCTA | -0.549 z-score
TTAGGACAGGGTATCGGTTAGTGCTAG | 2.11 z-score
GACGAACTGGGGTATCTAGACGTGCTA | -0.00206 z-score
GACGGACTGGACACTGGGTACGTGCTA | -0.565 z-score
AGATTCCTCTCACCTCGGCCTGTGCTA | 1.32 z-score
TTACGACTGCTACTGCTTTAGTGCTAG | -0.0966 z-score
TTAGATGTCAGACTGGATTAGTGCTAG | -0.573 z-score
TTTGGTATCCTACTGCTTTAGTGCTAG | 0.45 z-score
